Assay results pooled from the literature.
± marks the error that the study gave.

Cn1cc(-c2ccc(-c3cncc(Cl)c3N3CCC4(CCNC4=O)CC3)cc2)cn1 — IC50 (7dF3; WNT reporter gene, inhibitor): 5 ± 2 nM
COc1cccc2c1C(=O)c1c(O)c3c(c(O)c1C2=O)C[C@@](O)(C(=O)CO)C[C@@H]3O[C@H]1C[C@H](N)[C@H](O)[C@H](C)O1 — IC50 (HCT-116 CDK4 knockout; cell growth, SRB): 120 nM
CCCc1cc(-c2nc(-c3ccc(C)cc3)cs2)ccn1 — IC50 (NKM-1; cell viability; 72 h): 7340 ± 580 nM
CC[C@H](C)[C@@H]1NC(=O)[C@H](Cc2ccc(-c3ccccc3)cc2)NC(=O)[C@H](CC(C)C)NC(=O)[C@@H]2[C@@H](c3ccccc3)CCN2C(=O)[C@H](NC(=O)[C@H](CCCNC(=N)N)NC(=O)[C@H](CCCNC(=N)N)NC(C)=O)CSCSC[C@@H](C(=O)N[C@@H](CCCNC(=N)N)C(=O)N[C@@H](CCCNC(=N)N)C(N)=O)NC(=O)[C@H](C(C)C)NC(=O)[C@@H]2CCCN2C(=O)[C@H](CC(=O)O)NC(=O)[C@H](Cc2ccc(O)cc2)NC(=O)[C@H](CO)NC1=O — IC50 (AsPC-1; AlphaScreen, measured: pERK; 2 h): 3000 nM
CCCCN1C[C@H](O)[C@@H](O)[C@H](O)[C@H]1CO — IC50 (Sandhoff disease patient fibroblasts; glycosphingolipid lowering, LC-MS/MS, measured: Gb3 d18:0/16:0; human): 2800 nM
Cc1c(C(=O)O)ccc2c3n(nc12)[C@@H]1[C@H](C3)N(CC2CC2)[C@@]2(C(=O)Nc3cc(Cl)ccc32)[C@H]1c1cccc(Cl)c1F — IC50 (LS180; cell growth, alamarBlue; unbound, 4.5% of total): 1.54 nM
CC(=O)c1ccc(-c2cccc(NC(=O)CCc3cccc4c3B(O)OC4)c2)cc1 — IC50 (HCT-116 parental; cell viability, CellTiter-Glo): 170 nM
CO[C@H]1[C@H](O[C@H]([C@H]2O[C@@H](n3ccc(=O)[nH]c3=O)[C@H](O)[C@@H]2O)[C@H](NCCCNC(=O)[C@@H](NC(=O)[C@@H](NC(=O)N[C@H](C(=O)O)C(C)C)[C@@H]2CCN=C(N)N2)[C@@H](OC(=O)CCCCCCCCCCCCN(O)C(=N)N)C(C)C)C(=O)O)O[C@H](CN)[C@H]1O — IC50 (breast cancer cell lines; cell viability, WST-1; range over panel): 590 to 980 nM
CCc1nc(C(N)=O)c(Nc2ccc(N3CCC(N4CCN(C(=O)C5CCN(c6ccc(S(=O)(=O)NC(=O)c7ccc(N8CCN(CC9=C(c%10ccc(Cl)cc%10)CC(C)(C)CC9)CC8)cc7Oc7cnc8[nH]ccc8c7)cc6[N+](=O)[O-])CC5)CC4)CC3)c(OC)c2)nc1NC1CCOCC1 — IC50 (MV4-11 BCL-2 overexpressing, venetoclax-resistant; cell viability, alamarBlue; 48 h): > 10000 nM
COc1cc(C(=O)c2nc(-c3cccc4[nH]ccc34)cs2)cc(OC)c1OC — IC50 (PC-3/TxR paclitaxel-resistant; cell growth, MTS; 72 h): 3.4 ± 0.5 nM
CC(C)c1cccc(C(C)C)c1-n1c(Cl)c(Cl)n(-c2c(C(C)C)cccc2C(C)C)c1=[Se] — IC50 (H157 lung carcinoma cells; cell viability, MTT; 72 h): > 10000 nM
C[C@H]1[C@H](OC(=O)CCC(=O)O)O[C@@H]2O[C@@]3(C)CC[C@H]4[C@H](C)CC[C@@H]1[C@@]24OO3 — IC50 (primary AML blasts, FLT3-ITD; cell viability; 96 h, MSC co-culture, range over samples): 700 to 31800 nM
CC[C@@H](C)[C@H]1NC(=O)[C@H](Cc2ccc(-c3ccccc3)cc2)NC(=O)[C@H](CC(C)C)NC(=O)[C@@H]2[C@@H](c3ccccc3)CCN2C(=O)[C@H](NC(=O)[C@@H](CCCNC(=N)N)NC(=O)[C@@H](CCCNC(=N)N)NC(C)=O)CSCSC[C@@H](C(=O)N[C@H](CCCNC(=N)N)C(=O)N[C@H](CCCNC(=N)N)C(N)=O)NC(=O)[C@H](C(C)C)NC(=O)[C@@H]2CCCN2C(=O)[C@H](CC(=O)O)NC(=O)[C@H](Cc2ccc(O)cc2)NC(=O)[C@@](C)(CO)NC1=O — IC50 (AsPC-1; AlphaScreen, measured: pERK; 18 h): > 50000 nM
CCCCN1C[C@H](O)[C@@H](O)[C@@H](O)[C@H]1CO — IC50 (sample I patient fibroblasts; acidic compartment staining, LysoTracker Red imaging; 216 h): 34800 nM
[Se]=c1n(C23CC4CC(CC(C4)C2)C3)ccn1C12CC3CC(CC(C3)C1)C2 — IC50 (H157 lung carcinoma cells; cell viability, MTT; 72 h): 9400 nM
CC[C@]1(O)C[C@H]2CN(CCc3c([nH]c4ccccc34)[C@@](C(=O)OC)(c3cc4c(cc3OC)N(C=O)[C@H]3[C@@](O)(C(=O)OC)[C@H](OC(C)=O)[C@]5(CC)C=CCN6CC[C@]43[C@@H]65)C2)C1 — IC50 (KBv200 ABCB1-overexpressing): 574 ± 62.5 nM
COc1cc2c(Oc3ccc(NC(=O)C4(C(=O)Nc5ccc(F)cc5)CC4)cc3F)ccnc2cc1OCCCN1CCOCC1 — IC50 (Rh28 (alveolar rhabdomyosarcoma); cell growth; 3 days): 480 ± 150 nM
Nc1ccn([C@@H]2O[C@H](CO)[C@@H](O)C2(F)F)c(=O)n1 — IC50 (Abrams canine osteosarcoma; cell viability, resazurin; 72 h): 458 nM
COc1cc2nccc(Oc3ccc(NC(=O)C4(C(=O)Nc5ccc(F)cc5)CC4)cc3)c2cc1OC — IC50 (Rh28 (alveolar rhabdomyosarcoma); cell growth; 3 days): 4290 ± 1130 nM
Cc1cc(N2CCc3c(c(C)nn3CC34CCC(NC(=O)[C@@H]5COCCN5)(CC3)CC4)C2)c2cnn(C)c2n1 — IC50 (human PBMC; IFN-driven gene expression, inhibitor, qRT-PCR, measured: IFI44L mRNA; two donors, added: ssRNA): 1.6 ± 0.2 nM
CC[C@H](C)[C@@H]1NC(=O)[C@H](Cc2ccc(-c3ccccc3)cc2)NC(=O)[C@H](CC(C)C)NC(=O)[C@@H]2[C@@H](c3ccccc3)CCN2C(=O)[C@H](NC(=O)[C@@H](CCCNC(=N)N)NC(=O)[C@@H](CCCNC(=N)N)NC(=O)[C@H](CCCCN=[N+]=[N-])NC(C)=O)CSCSC[C@@H](C(=O)N[C@H](CCCNC(=N)N)C(=O)N[C@H](CCCNC(=N)N)C(N)=O)NC(=O)[C@H](C(C)C)NC(=O)[C@@H]2CCCN2C(=O)[C@H](CC(=O)O)NC(=O)[C@H](Cc2ccc(O)cc2)NC(=O)[C@](C)(CO)NC1=O — IC50 (AsPC-1; AlphaScreen, measured: pERK; 2 h): 6000 nM
CCCCCN1C[C@H](O)[C@@H](O)[C@H](O)[C@@H]1CO — IC50 (Sandhoff disease patient fibroblasts; glycosphingolipid lowering, LC-MS/MS, measured: GM3 d18:1/18:0; human): 388 nM

Excerpt of the above:
CC(=O)c1ccc(-c2cccc(NC(=O)CCc3cccc4c3B(O)OC4)c2)cc1 — IC50 (HCT-116 parental; cell viability, CellTiter-Glo): 170 nM
CO[C@H]1[C@H](O[C@H]([C@H]2O[C@@H](n3ccc(=O)[nH]c3=O)[C@H](O)[C@@H]2O)[C@H](NCCCNC(=O)[C@@H](NC(=O)[C@@H](NC(=O)N[C@H](C(=O)O)C(C)C)[C@@H]2CCN=C(N)N2)[C@@H](OC(=O)CCCCCCCCCCCCN(O)C(=N)N)C(C)C)C(=O)O)O[C@H](CN)[C@H]1O — IC50 (breast cancer cell lines; cell viability, WST-1; range over panel): 590 to 980 nM
